Experimental data pooled from the literature.
Several values in a cell are separate wells, animals, samples, runs or records. Numbers after ± are the reported error.
CASP4: Caspase-4 (CASP4, Homo sapiens, UniProt P49662)
USP5: Ubiquitin carboxyl-terminal hydrolase 5 (USP5, Homo sapiens, UniProt P45974)
Lysophospholipase-like protein 1: Lysophospholipase-like protein 1 (Mus musculus, UniProt Q3UFF7)

For `C=CC(=O)N1[C@H](c2ccc3c(c2)OCO3)c2[nH]c3ccccc3c2C[C@H]1C(=O)N1CCOCC1`, genome-wide binding read “no effect” (Hepatocyte nuclear factor 3-alpha (FOXA1, Homo sapiens, UniProt P55317); chromatin binding, ChIP-seq; 22Rv1; 20 µM, 3 h).
`CC(=O)N1CCC[C@H]1C(=O)N[C@@H](CCC(N)=O)C(=O)N[C@@H](C)C(=O)N[C@@H](CC(=O)O)C(=O)COC(=O)c1c(C)cccc1C` gave a kobs/[I] of 7600 M⁻¹ s⁻¹ (CASP4; inhibitor; recombinant enzyme).
With `[O-][N+](=Cc1ccc(O)cc1)c1ccccc1` the inhibition was 15% (USP5; enzyme activity, inhibitor; 17 µM).
With `CC(=O)N1[C@H](C(=O)N[C@@H](CC(C)C)C(=O)N[C@@H](C)C(=O)N[C@@H](CC(=O)O)C(=O)COC(=O)c2c(C)cccc2C)C[C@@H]2CCCC[C@@H]21` the kinact/KI was 114000 M⁻¹ s⁻¹ (Caspase-9 (CASP9, Homo sapiens, UniProt P55211); enzyme activity, inhibitor).
With `CCN(CC)CCn1c2ccccc2c2nc(C)sc21` the inhibition was 64% (USP5; enzyme activity, inhibitor; 17 µM).
With `CC(C)=CCC/C(C)=C/CC/C(C)=C/CC/C(C)=C/COP(=O)(O)OP(=O)(O)O` the Vmax was 13 fmol/min (geranylgeranyltransferase type-I (Rattus norvegicus, UniProt P53610+Q04631); peptide prenylation, substrate, fluorescence anisotropy; with: FAM-RHOA peptide).
`CC(=O)N[C@@H](CC(=O)O)C(=O)N[C@@H](CCCC(=O)O)C(=O)N[C@@H](CC(C)C)C(=O)N[C@@H](CC(=O)O)C(=O)COC(=O)c1c(C)cccc1C` has a kinact/KI of 23400 M⁻¹ s⁻¹ (CASP4; enzyme activity, inhibitor).
Under “isoTOP-ABPP competition ratio”, `CCCCCC(O)/C=C/C=O` (stereo not shown) is recorded as 1.2 (Guanine nucleotide-binding protein G(i) subunit alpha-2 (Homo sapiens, UniProt P04899); competitive isoTOP-ABPP, measured: GNAI2 cysteine peptide; Ramos soluble proteome; 100 µM, with: iodoacetamide probe; reference: DMSO over compound-treated, higher = stronger cysteine blockade).
`CC(=O)N[C@@H](CC(C)C)C(=O)N[C@H](C(=O)N[C@@H](C)C(=O)N[C@@H](CC(=O)O)C(=O)COC(=O)c1c(C)cccc1C)C(C)(C)C` has a kinact/KI of 66800 M⁻¹ s⁻¹ (CASP4; enzyme activity, inhibitor).
For `N#CN1CC[C@H](C(=O)Nc2nc3c(s2)CN(C(=O)Cn2cc(COCCOCCOCCOCCNC(=O)CCCC[C@@H]4SC[C@@H]5NC(=O)N[C@@H]54)nn2)CC3)C1`, the iBAQ abundance was 906000 and 714000 and 843000 (USP5; probe binding, affinity probe, neutravidin pull-down LC-MS/MS; HEK293T, cell lysate; 5 µM, 1 h, single replicate, unit not given; higher = more pulled down).
For `Fc1ccc(Nc2nc(NC3CCCCC3)c3cc(C(F)(F)F)ccc3n2)cc1F`, the maximal inhibition was 1.9% (ADRB2 (Homo sapiens, UniProt P07550, N148A); β-arrestin2 recruitment, antagonist, BRET; mutant N148A; reference: isoprenaline maximal response).
`CC(C)[C@H](NC(=O)[C@H](Cc1ccccc1)NC(=O)c1ccc(C(C)(C)C)cc1)C(=O)N[C@@H](CCN)C(=O)N[C@@H](CCCCN(C)C1CC2CCC1C2)C(=O)N[C@@H](CO)C(N)=O` (stereo partly shown) gave a selectivity ratio of 65 (Chromobox protein homolog 8 (Homo sapiens, UniProt Q9HC52); TR-FRET displacement; reference: IC50 CBX7 over IC50 CBX8).
For `CC(=O)N[C@@H](C(=O)N[C@@H](CCCC(=O)O)C(=O)N[C@@H](CCC1CCCCC1)C(=O)N[C@@H](CC(=O)O)C(=O)COC(=O)c1c(C)cccc1C)C1CCCCC1`, the kobs/[I] was 1200 M⁻¹ s⁻¹ (CASP4; inhibitor; recombinant enzyme).
For `CCCCCCCCCCCCCCCC(=O)OCC(CSC[C@H](N)C(=O)N[C@@H](CO)C(=O)N[C@@H](CCCCN)C(=O)N[C@@H](CCCCN)C(=O)N[C@@H](CCCCN)C(=O)N[C@@H](CCCCN)C(=O)NCCCCCC(=O)N[C@@H](CCCCN)C(=O)N[C@@H](CC(C)C)C(=O)N[C@H](C(=O)N[C@@H](Cc1ccccc1)C(=O)N[C@@H](Cc1ccccc1)C(=O)N[C@@H](Cc1ccc2ccccc2c1)C(=O)O)C(C)C)OC(=O)CCCCCCCCCCCCCCC` (stereo partly shown), the fibril diameter was 21.2 nm (Amyloid-beta precursor protein, fibrillar amyloid-beta (APP, Homo sapiens, UniProt P05067); TEM; 2.0 eq, 18 h, fibril 4, with: APP 20 µM).
`CCCCCC=CC=C1C(=O)C=CC1CC=CCCCC(=O)O` (stereo not shown) — result for “isoTOP-ABPP competition ratio”: 6.7 (WD repeat domain phosphoinositide-interacting protein 3 (WDR45B, Homo sapiens, UniProt Q5MNZ6); competitive isoTOP-ABPP, measured: WDR45L cysteine peptide; proteome, soluble, MDA-MB-231; 100 µM, with: iodoacetamide probe; reference: DMSO over compound-treated, higher = stronger cysteine blockade).
The efficacy of `CC[C@H](C)[C@H](NC(=O)[C@H](Cc1ccccc1)NC(=O)[C@H](CCC(=O)O)NC(=O)[C@H](CCCCN)NC(=O)[C@H](C)NC(=O)[C@H](C)NC(=O)[C@H](CCC(N)=O)NC(=O)CNC(=O)[C@H](CCC(=O)O)NC(=O)[C@H](CC(C)C)NC(=O)[C@H](Cc1ccc(O)cc1)NC(=O)C[C@@H](NC(=O)[C@H](CO)NC(=O)C(C)(C)NC(=O)[C@H](CC(=O)O)NC(=O)[C@H](CO)NC(=O)[C@@H](NC(=O)[C@H](Cc1ccccc1)NC(=O)[C@@H](NC(=O)CNC(=O)[C@H](CCC(=O)O)NC(=O)[C@H](C)NC(=O)[C@@H](N)Cc1c[nH]cn1)[C@@H](C)O)[C@@H](C)O)C(C)C)C(=O)N[C@@H](C)C(=O)N[C@@H](Cc1c[nH]c2ccccc12)C(=O)N[C@@H](CC(C)C)C(=O)N[C@H](C(=O)N[C@@H](CCCCN)C(=O)NCC(=O)N[C@@H](CCCNC(=N)N)C(N)=O)C(C)C` is reported as 27 ± 2% (GLP1R (Homo sapiens, UniProt P43220); β-arrestin-1 recruitment, agonist, BRET; reference: GLP-1).
`O=C1c2sc(-c3ccc(N4CCC(CO)CC4)nc3F)nc2CCN1c1cccnc1` has a specific binding of 0.076 nM (TAR DNA-binding protein 43, aggregated (TARDBP, Homo sapiens, UniProt Q13148); radioligand binding; control brain sarkosyl-insoluble extract; 13.55 nM).
With `[3H]C([3H])([3H])OC1(C2=NCCN2)COc2ccccc2O1` (stereo not shown) the Bmax was 1.29 ± 0.31 pmol/mg protein (Alpha-2C adrenergic receptor (Mus musculus, UniProt Q01337, L10D); radioligand binding; HEK293 membranes; α2c(L10D)-AR mutant).
`CC[C@H](C)[C@H](NC(=O)[C@H](CC(=O)O)NC(C)=O)C(=O)N[C@H](C(=O)N[C@H](C(=O)N[C@@H](CCCNC(=N)N)C(=O)N[C@@H](Cc1ccc(O)cc1)C(=O)N[C@@H](CC(N)=O)C(=O)NCC(=O)N[C@@H](CCCCN)C(=O)N[C@H](C(=O)N[C@@H](Cc1c[nH]c2ccccc12)C(=O)N[C@@H](Cc1c[nH]c2ccccc12)C(=O)N[C@@H](CCCNC(=N)N)C(=O)O)C(C)C)[C@@H](C)O)[C@@H](C)O` has a β-strand content of 16% (Insulin (INS, Bos taurus, UniProt P01317); circular dichroism; 800 min, final stage after heating, with: INS 350 µM).
`CC[C@H](C)[C@@H]1NC(=O)[C@H](Cc2ccccc2)NC(=O)[C@H](CCC(=O)O)NC(=O)[C@H](CCCNC(=N)N)NC(=O)CNC(=O)[C@@H](NC(=O)[C@H](CC(C)C)NC(=O)[C@H](CCCNC(=N)N)NC(=O)[C@@H](NC(=O)CNC(=O)[C@H](Cc2ccc(O)cc2)NC(=O)[C@@H]2CCCN2C(=O)[C@H](C)NC(=O)[C@H](C)NC(=O)[C@@H](N)CCCNC(=N)N)C(C)C)CSSC[C@@H]2NC(=O)[C@@H](NC(=O)[C@H](CO)NC(=O)[C@H](CO)NC(=O)[C@H](CO)NC(=O)[C@H](CC(C)C)NC(=O)CNC(=O)[C@H](C)NC(=O)[C@H](CC(C)C)NC(=O)[C@@H](NC(=O)[C@@H](N)CC(=O)O)C(C)C)CSSC[C@H](NC(=O)CNC(=O)[C@H](Cc3c[nH]c4ccccc34)NC(=O)[C@H](CCCCN)NC2=O)C(=O)N[C@@H](CO)C(=O)N[C@@H](CCCCN)C(=O)N[C@@H](CO)C(=O)N[C@@H](CCC(=O)O)C(=O)N[C@@H]([C@@H](C)CC)C(=O)N[C@@H](CO)C(=O)N[C@@H](CO)C(=O)N[C@@H](CC(C)C)C(=O)N[C@H](C(=O)O)CSSC[C@@H](C(=O)NCC(=O)NCC(=O)N[C@@H](CO)C(=O)N[C@@H](CCCNC(=N)N)C(=O)N[C@@H](Cc2c[nH]c3ccccc23)C(=O)O)NC(=O)[C@H]([C@@H](C)O)NC(=O)[C@H](Cc2ccccc2)NC(=O)[C@H]([C@@H](C)CC)NC(=O)[C@H](C(C)C)NC(=O)[C@H](C)NC(=O)[C@H](CCCNC(=N)N)NC1=O`: “change in pEC50” -0.985 and -2.11 and -0.648 and -1.26 (RXFP4 (Homo sapiens, UniProt Q8TDU9, Q205A); agonist; Q205A mutant, unit not given; reference: wild type).
`CC(=O)N[C@H](C(=O)N[C@@H](CCCC(=O)O)C(=O)N[C@@H](CCC1CCCCC1)C(=O)N[C@@H](CC(=O)O)C(=O)COC(=O)c1c(C)cccc1C)C(C)(C)C` gave a kinact/KI of 30000 M⁻¹ s⁻¹ (CASP4; enzyme activity, inhibitor).
`CN1CCN(Cc2ccc(NC(=O)c3cccc(C#Cc4cnc(N)c5ncccc45)c3)cc2C(F)(F)F)CC1` gave a remaining binding of 0.3% (Tyrosine-protein kinase ABL1, phosphorylated (ABL1, Homo sapiens, UniProt P00519, T315I); cell-free assay, competition with immobilised ligand; 0.5 µM).
For `CC(=O)N[C@@H](CCC(N)=O)C(=O)N[C@@H](CC(C)C)C(=O)N[C@@H](CCCC(=O)O)C(=O)N1CCC[C@H]1C(=O)N[C@@H](CC(=O)O)C(=O)COC(=O)c1c(C)cccc1C`, the kinact/KI was 71000 M⁻¹ s⁻¹ (CASP4; enzyme activity, inhibitor).
The kon of `CC(=O)N[C@@H](CCCNC(=N)N)C(=O)N[C@H](C(=O)N[C@@H](CCCCN)C(=O)N[C@@H](CO)C(=O)N[C@@H](CCCNC(=N)N)C(=O)N[C@H](C(=O)N[C@@H](Cc1c[nH]c2ccccc12)C(=O)N[C@@H](C)C(=O)N[C@@H](C)C(N)=O)[C@@H](C)OP(=O)(O)O)[C@@H](C)O` is reported as 1.01e+06 M⁻¹ s⁻¹ (14-3-3 protein epsilon (Homo sapiens, UniProt P62258); binding, SPR).
The inhibition of `c1ccc(-c2cnc3nonc3n2)cc1` is reported as 7% (USP5; enzyme activity, inhibitor; 17 µM).
For `CCN(CC)C(CO)c1cccc2c(C)c(C)oc12` (stereo not shown), the fold change was 0.729 and 0.933 and 0.977 and 0.964 and 0.66 and 0.978 (LPAR1 (Homo sapiens, UniProt Q92633, W210A); G-protein dissociation, agonist, NanoBiT; HEK-293T; 10 nM, W210A mutant; reference: baseline luminescence).
`Nc1nc(SCc2ccc(Cl)cc2)nn1S(=O)(=O)C1CCCCC1`: “probe labeling increase” 2 fold (Lysophospholipase-like protein 1; enzyme activity, activator, gel-based ABPP; purified protein; concentration not given, with: FP-rhodamine; reference: DMSO).
The reaction rate of `O=C1N/C(=N\c2ccc(F)cc2C(=O)O)S/C1=C\c1cccc2ccccc12` is reported as -21.9 a.u. (DHODH (Homo sapiens, UniProt Q02127); enzyme activity, inhibitor, DCIP reduction; 0.1 µM; higher = more activity).
The LYPLAL1 activity of `Cc1nc2ccc(S(=O)(=O)n3nc(SCc4ccc(Cl)cc4)nc3N)cc2s1` is reported as about 2 fold (Lysophospholipase-like protein 1; gel-based ABPP; mouse, liver and kidney; IP, 100 mg/kg single dose; reference: vehicle).
For `CN(Cc1cc(C2CC2)on1)C(=O)c1cccc(-c2ccc3c(c2)CCO3)c1`, the reaction rate was 0.00345 a.u. (ACSS2 (Homo sapiens, UniProt Q9NR19); enzyme activity, inhibitor, coupled pyrophosphate; 25 µM; higher is more activity).
`O=C1C=C(N2CCOCC2)C(=O)N1c1ccc(Cl)cc1` has an inhibition of 0% (USP5; enzyme activity, inhibitor; 17 µM).
`C[C@@H](Nc1nc(N[C@H](C)C(F)(F)F)nc(-c2cccc(Cl)n2)n1)C(F)(F)F` gave a maximal inhibition of 115 ± 6.4% (IDH1 (Homo sapiens, UniProt O75874, R132H); enzyme activity; 16 h preincubation, mutant heterodimer, reverse reaction).
With `C=CC(=O)N1CCCC(n2c(=O)c3ncccc3n(Cc3ccc(Oc4ccccc4)cc3)c2=O)C1` (stereo not shown) the melting temperature was 45.9 °C and 52.2 °C (Talin-1 (TLN1, Homo sapiens, UniProt Q9Y490); thermal proteome profiling; cell proteome; treated).
`O=C(NCc1ccccc1)c1cccnc1N1CCCC1` has an inhibition of 3% (USP5; enzyme activity, inhibitor; 17 µM).
`Cc1cc(C)cc(COc2cc3c(cc2OCc2cc(C)cc(C)c2)C2CC(O)(Cc4cn(CCOCCOCCNC(=O)CCCCC5SCC6NC(=O)NC65)nn4)CC(C)N2CC3)c1` (stereo not shown) gave an SILAC ratio of 1.79 (Bone marrow stromal antigen 2 (Homo sapiens, UniProt Q10589); biotinylated probe pull-down, measured: BST2; 10 µM probe; reference: heavy over light).
With `CC(=O)N[C@@H](CC(=O)O)C(=O)N[C@@H](Cc1ccc2ccccc2c1)C(=O)N[C@@H](C)C(=O)N[C@@H](CC(=O)O)C(=O)COC(=O)c1c(C)cccc1C` the kinact/KI was 1200 M⁻¹ s⁻¹ (CASP4; enzyme activity, inhibitor).
Under “log2 LFQ intensity”, `N[C@H]1CC[C@H](Nc2nccc(-c3cccnc3Oc3ccc(NC(=O)NC4CC4)c4ccccc34)n2)CC1` is recorded as 23.4 and 24 and 19.4 and 23.3 (GSTP1 (Homo sapiens, UniProt P09211); kinobead competition pulldown; HEK293/HCT116 lysate mixture; 10 µM, 1 h, 4 °C; lower = stronger competition).
